Results from different studies.
A part holds a random share of what one study measured. Changes are numbered by the printed parent chain.

Study 1
Target: Histone acetyltransferase KAT6A, both winged helices, GST fusion (KAT6A, Homo sapiens, UniProt Q92794, residues 1-181)
Technique: protein binding microarray
Molecule type: double-stranded DNA, one strand shown
Matrix: in vitro
Concentration: not given
Setting: 8-mer, flanks averaged, mean of 2 arrays, mostly near background
Relative to: not given
Reading: higher = stronger binding
Quantity: E-score
Residues (chain): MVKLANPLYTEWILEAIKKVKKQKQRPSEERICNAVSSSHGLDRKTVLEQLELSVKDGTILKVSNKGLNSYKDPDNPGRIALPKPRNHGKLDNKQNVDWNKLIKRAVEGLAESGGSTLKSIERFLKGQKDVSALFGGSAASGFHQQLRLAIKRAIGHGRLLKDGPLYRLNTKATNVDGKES
ACCTCGGC: 0.11
AGTTCCGG: 0.111
CTCAATAC: -0.0972
GCCATGAA: -0.0932
CGTCAACC: 0.0715
CGTGCGAG: 0.159
CGGACCTC: 0.133
GAGGAATA: -0.148
TGACAGCA: -0.038
CGAATTGC: 0.129
CCCATTAC: -0.171
AAACACAT: -0.132
CCTTACCG: 0.148
AGCACAGA: -0.142
CAAACTGG: -0.237
CAGTCCAC: -0.208
CCGCTACA: 0.182
CATGTATC: 0.0171
GATTCCAC: 0.00017
GACGGAGC: 0.0596
CCGATGCC: 0.124
GAAGCCTA: 0.0415
CTATTTTC: -0.114
CCTTACAC: -0.0648
CTCTCGCA: -0.0961

Study 2
Target: RNA binding protein fox-1 homolog 2, RRM domain, GST-SBP tag (RBFOX2, Homo sapiens, UniProt O43251-10, residues 100-194)
Technique: RNA Bind-n-Seq
Molecule type: RNA
Matrix: in vitro
Concentration: 365 nM
Setting: natural RNA segment, single round, ends assumed
Relative to: no-protein control
Reading: higher = stronger binding
Quantity: RBNS enrichment (R)
Constant ends, left off below: GGGAGUUCUACAGUCCGACGAUC … UGGAAUUCUCGGGUGCCAA
Construct (chain): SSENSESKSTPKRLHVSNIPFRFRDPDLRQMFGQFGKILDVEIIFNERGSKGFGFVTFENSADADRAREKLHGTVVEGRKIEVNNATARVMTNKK
CCCACUUGUGUCUCACCCCCAUGUCAUUUCUCCUUCUCUGCCUUGGUUCCUCUUUCUCCAUCACUGGCUCCUUCUUUGAUGCUCUCUCCCCAUCUCAGGGUCAGACCAGC: 0.952
GUACGUUUUACGUUUUCCUAUUUACCAGUGGGGUUUUGCUGUAGCCUGUGUAACUCUGCUCUGAGGAACAGGUGUUUCCCAACUGGAUUCGCCUUUUCUAGUCCAGUAGA: 0.378
AUAAUGGACAUUGCCAUCUCUGCCCUUUGGUCCUCCUUGCUUCUCUCCAUACAAUAAGACACCUCCGAAGCAAAAUGGCGGCCCUUGCUCCAGGCAGGACAUCAGACUGU: 0.38
AAGACUAUUGAAGACUCCAUUGCCAAACCAUGGCCUUUCCUCAGUGUUGUAAGGCCUAUGCCAAGGAUAAAGGAAGGGUAUGCCUUUGGGUACUCCAGGCACACACCUUU: 0.341
AGAUAUAUUAGCACAGCCUGCCUUCUGCUGCACAACGCCUUAGAGACCCGGCCUUUCAAUGAGCUUAGCUUGUGCUCUGUUUCUGCUCUCUUAGGUCUAAACUAUGGUGU: 4.27
AGGGUACCCACUACUCAGGCCUCCCUAGCGCCUCCUCCCCUAACGUCUCCCCGGCCUACUCAUCCUGAGUCACCCUAUCACCAUGGGAGGUGGAGCCUCAAACUAAAACC: 0.398
CCCUCUCCACCUGCUGAGCUGAGCAAACCAGUAGAGGAAACAGGAUUGAUCUUAACUGAACGAAAACAAAACUGCAUAUGUACUUAAACAGUCUGCAUAUUUGCCAUCCA: 0.317
AGGCCGCCCCAGCCUCUGAGCCCCUGGGACUGCUGCUUCUUAACCCCAGUAAGCCACUGCCACACGUCUGACCCUCUCCACCCCAUAGUGACCGGCUGCUUUUCCCUAAG: 0.6

Study 3
Target: CCND3, cyclin fold, Cln2 fusion (human)
Technique: yeast growth competition, sequencing
Matrix: yeast
Setting: weak parent motif
Relative to: not given
Reading: higher = stronger binding
Quantity: normalised enrichment score
Starting sequence: CDKN1A docking peptide (human); SKACRRLFGPVDS; partner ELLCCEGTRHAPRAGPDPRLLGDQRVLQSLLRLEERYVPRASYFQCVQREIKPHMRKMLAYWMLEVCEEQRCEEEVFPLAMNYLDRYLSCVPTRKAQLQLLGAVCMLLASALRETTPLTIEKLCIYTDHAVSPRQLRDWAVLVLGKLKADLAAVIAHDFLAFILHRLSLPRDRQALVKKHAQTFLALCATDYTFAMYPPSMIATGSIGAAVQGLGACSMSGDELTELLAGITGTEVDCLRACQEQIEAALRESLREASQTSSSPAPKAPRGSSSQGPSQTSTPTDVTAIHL
R5V: 0.0568
A3I: 0.149
G9M: 0.458
L7T: 0.475
V11W: 0.765
D12T: 0.573
A3P: 0.532
R6M: 1.09
P10V: 0.298
F8Y: -0.0773
L7R: -0.00043
V11E: 0.551
V11T: 0.375
C4E: -0.0623
L7F: 0.0543
D12W: 0.474
G9H: 0.246
C4N: 0.0551

Study 4
Target: RING finger protein unkempt homolog, zinc fingers 1-6, GST-SBP tag (UNK, Homo sapiens, UniProt Q9C0B0, residues 30-357)
Technique: RNA Bind-n-Seq
Molecule type: RNA
Matrix: in vitro
Concentration: not given
Setting: RNA with constant flanks, human and mouse sites, ends assumed
Relative to: input RNA pool
Reading: higher = stronger binding
Quantity: bound/input enrichment
Constant ends, left off below: GGGAGUUCUACAGUCCGACGAUC … CAACAGAGGAUUGAGCAUCA
Target sequence (chain): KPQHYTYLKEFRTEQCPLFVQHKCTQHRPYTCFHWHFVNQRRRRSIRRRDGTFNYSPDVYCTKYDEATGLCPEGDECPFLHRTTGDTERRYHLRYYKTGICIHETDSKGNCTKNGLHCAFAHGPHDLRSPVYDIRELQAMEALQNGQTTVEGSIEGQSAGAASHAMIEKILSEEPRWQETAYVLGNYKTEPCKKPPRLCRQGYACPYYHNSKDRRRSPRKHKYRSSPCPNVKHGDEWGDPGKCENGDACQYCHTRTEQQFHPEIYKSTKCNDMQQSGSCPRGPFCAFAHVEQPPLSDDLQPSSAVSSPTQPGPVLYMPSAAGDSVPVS
UCCAGCUCUUGAUGUUUUUAAACUUUUUUUUAGAAGAAAAAUUAAGUACAGAAAAGCCCAGAUUUAAAUACAUUUAAUAUGUCAUUUUAAAAAUGAUUUUAAUAAUUCAUUUCUUAAAAC: 0.387 ratio
GACGACAAAAGAGUUGUACCUAAAGGAAAAGGAGAACAGAUUGCAAGGGAGCAUGGUAUUAGGUUUUUUGAGACUAGUGCAAAAGCAAAUAUAAACAUCGAAAAGGCGUUCCUCACGUUA: 2.04 ratio
CUCACACCGUGUGUGGUCCAGGCUGUACCUUCAGAUCUUUAUGUGGUUCCAAAAUGUCCUUAGCUGCCCUGUGGCCUGAAGGAAUCCAGAGCCAGGGAGCAAUAUGCUGAUAGCAGGGUG: 0.0902 ratio
AAGUCAGUGUCUAUGCUCUCAAGGACACACUGACAAGCAGACCAGCCCAGGGAGUCAUCACUACUCUGGAGAAUGUUAGCCCUCCAAGAAGGGCCCGUGUGACGGACGCUACAGAGACCA: 0.166 ratio
GCAGACACAGUGAAGCCUGAAGCAGAACUGGCUAUCCAUAUUCUGAAAUCUAUGGGCUUAGAAGUAGUUCUGAUGACUGGAGACAACAGUAAAACAGCUAGAUCUAUUGCUUCUCAGGUU: 0.283 ratio
UGAAGCUGAGUGGCCGAGAGAUUGAUGUUCGAAUUGAUAGAAAUGCUUAAGCAGUUGCCUUUUUUAAACAUCAAUACCAGACCUCUGAAUUUGUAUUUUUUCUUGUUAACCAUUUUAAUU: 0.511 ratio
GAAAGCACUACCCUAAGCCAUGAAGAACUCCAUGCUUUGCUAACCAAGAUAACUGUUUUCUCUUUGUAGAAGUUUUGUUUUUGAAAUGUGUAUUUCUAAUUAUAUAAAAUAUUAAGAAUC: 1.15 ratio
AAGAGGAAGCUAAUUGUUGACAGUGUCAAAGAGUUGGAUAGCAAGACAAUUAGAGCCCAACUUAGUGAUUAUUCAGAUAUUGUUACUACUUUGGAUCUGGCACCGCCCACCAAGAAAUUG: 0.569 ratio

Repeated from above (study 1):
AGCACAGA: -0.142
CAAACTGG: -0.237
CAGTCCAC: -0.208
CCGCTACA: 0.182
CATGTATC: 0.0171
